Results pooled from the literature.
Route: intravenous

CC(C)(C)C(=O)Nc1ccc2[nH]c(CN3CCC(N(CCCN4CCOCC4)CC4OC(n5cnc6c(N)ncnc65)C(O)C4O)CC3)nc2c1 (stereo not shown)
Vd (male Sprague-Dawley rat, plasma; 20 mg/kg): 7.59 L/kg

COc1ccc2c(c1OCc1ccccc1)C[C@@H](C(=O)O)N(c1nc3ccc(C#N)cc3o1)C2
Vd (male Sprague-Dawley rat, plasma; 1 mg/kg): 0.21 L/kg

N=C(N)NCCC[C@H](NC(=O)[C@@H]1CCCN1C(=O)[C@H](Cc1ccccc1)NC(=O)[C@@H]1CCCN1C(=O)[C@H](Cc1c[nH]cn1)NC(=O)[C@@H](N)Cc1ccccc1)C(=O)O
Vd (rat, plasma; 10 mg/kg): 72 L/kg

CSCOC1C(=O)C2(C)C(OCSC)CC3OCC3(OC(C)=O)C2C(OC(=O)c2ccccc2)C2(O)CC(OC(=O)C(O)C(C=C(C)C)NC(=O)OC(C)(C)C)C(C)=C1C2(C)C (stereo not shown)
Vd (female Sprague-Dawley rat, plasma; 2 mg/kg): 68.1 L/kg

CC12CC3CC(C)(C1)CC(NC(=O)Nc1ccc(C(=O)N4CCC[C@H](C(N)=O)C4)cc1F)(C3)C2
Vd (Sprague-Dawley rat, plasma; 10 mg/kg): 3.68 L

NC(COc1ccccc1C(F)(F)F)c1ccccc1 (stereo not shown)
Vd (male Sprague-Dawley rat, serum; 5 mg/kg): 42.5 L/kg

COCCCN1CCc2c(Cc3ccc(Cl)cc3)[nH]c3c(OC(F)F)ccc(c23)C1=O
Vd (male Sprague-Dawley rat, blood; 2.5 mg/kg): 4.92 L/kg

COc1cc(NC(C)=O)c2c(c1O)-c1c(OC)c(OC)cc3c1C(C2)N(C)CC3 (stereo not shown)
Vd (male Wistar rat, plasma; 100 mg/kg): 8.06 L/kg

COc1ccc2c(c1OCc1ccccc1)C[C@@H](C(=O)O)N(c1nc3ccc(F)cc3o1)C2
Vd (male Sprague-Dawley rat, plasma; 1 mg/kg): 0.24 L/kg

COc1cc2ncnc(Oc3ccc(Nc4nccc5[nH]cc(-c6ccc(F)cc6)c(=O)c45)cc3F)c2cc1OC
Vd (male Sprague-Dawley rat, plasma; 5 mg/kg): 0.3 L/kg

C[Si]1(C)CNC(=O)c2ccccc21
Vd (rat, plasma; 1 mg/kg, single dose): 2.8 L/kg

Cc1ccc(OCC(=O)N(Cc2cccs2)c2ccn[nH]2)cc1
Vd (female Sprague-Dawley rat, plasma; 1 mg/kg, single dose): 2.44 L/kg

COC(=O)c1ccc2c(c1)NC(=O)/C2=C(\Nc1ccc2c(c1)CCN2C(=O)CN1CCOCC1)c1ccccc1
Vd (Sprague-Dawley rat, plasma; 2 mg/kg): 1.75 L/kg

Some of these lines once more:
COc1ccc2c(c1OCc1ccccc1)C[C@@H](C(=O)O)N(c1nc3ccc(F)cc3o1)C2
Vd (male Sprague-Dawley rat, plasma; 1 mg/kg): 0.24 L/kg
